Measured values from different studies.
Lines come from different studies, so protocols differ. Several values in a cell are separate wells, animals, samples, runs or records. Numbers after ± are the reported error.
OPRD1: Delta-type opioid receptor (OPRD1, Homo sapiens, UniProt P41143)
Sequence of UniProt P41143 (whole entry, looked up): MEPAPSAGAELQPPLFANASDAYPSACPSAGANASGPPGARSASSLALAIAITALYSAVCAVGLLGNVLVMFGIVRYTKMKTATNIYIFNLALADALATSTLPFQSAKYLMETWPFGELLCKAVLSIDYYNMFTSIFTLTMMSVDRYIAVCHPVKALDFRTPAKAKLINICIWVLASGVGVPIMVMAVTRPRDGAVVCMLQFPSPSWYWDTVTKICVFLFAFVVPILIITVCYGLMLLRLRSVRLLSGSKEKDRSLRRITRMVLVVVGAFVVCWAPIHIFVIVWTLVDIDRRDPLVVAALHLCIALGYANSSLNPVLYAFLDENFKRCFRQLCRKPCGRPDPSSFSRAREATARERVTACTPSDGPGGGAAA
GABA-A receptor; alpha-1/beta-3/gamma-2: GABA-A receptor; alpha-1/beta-3/gamma-2 (Homo sapiens, UniProt P14867+P18507+P28472)
Sequence of UniProt P28472 (whole entry, looked up): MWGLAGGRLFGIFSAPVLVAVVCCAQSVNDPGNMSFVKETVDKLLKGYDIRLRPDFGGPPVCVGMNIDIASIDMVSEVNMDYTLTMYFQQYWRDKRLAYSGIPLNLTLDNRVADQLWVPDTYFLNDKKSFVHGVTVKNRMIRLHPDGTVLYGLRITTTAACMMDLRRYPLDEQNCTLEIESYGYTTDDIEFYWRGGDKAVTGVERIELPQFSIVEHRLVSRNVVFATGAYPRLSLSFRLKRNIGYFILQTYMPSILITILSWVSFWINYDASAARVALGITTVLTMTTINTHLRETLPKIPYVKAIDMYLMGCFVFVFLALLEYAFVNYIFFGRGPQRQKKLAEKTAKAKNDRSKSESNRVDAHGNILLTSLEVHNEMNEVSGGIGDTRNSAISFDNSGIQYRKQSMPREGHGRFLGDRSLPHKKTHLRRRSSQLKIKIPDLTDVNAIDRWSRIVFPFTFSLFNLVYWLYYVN
Sequence of UniProt P18507 (whole entry, looked up): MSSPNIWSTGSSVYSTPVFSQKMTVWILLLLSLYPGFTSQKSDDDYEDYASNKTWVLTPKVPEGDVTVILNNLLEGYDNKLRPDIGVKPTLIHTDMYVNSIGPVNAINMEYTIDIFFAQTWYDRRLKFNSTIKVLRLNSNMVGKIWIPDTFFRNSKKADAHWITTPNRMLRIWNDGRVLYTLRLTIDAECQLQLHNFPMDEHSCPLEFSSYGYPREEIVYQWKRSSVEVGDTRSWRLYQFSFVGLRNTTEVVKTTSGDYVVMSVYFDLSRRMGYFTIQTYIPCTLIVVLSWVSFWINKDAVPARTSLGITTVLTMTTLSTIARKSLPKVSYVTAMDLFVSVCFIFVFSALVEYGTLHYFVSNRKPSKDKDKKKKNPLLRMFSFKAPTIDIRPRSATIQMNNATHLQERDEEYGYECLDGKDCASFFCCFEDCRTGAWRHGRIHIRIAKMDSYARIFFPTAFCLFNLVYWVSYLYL
Sequence of UniProt P14867 (whole entry, looked up): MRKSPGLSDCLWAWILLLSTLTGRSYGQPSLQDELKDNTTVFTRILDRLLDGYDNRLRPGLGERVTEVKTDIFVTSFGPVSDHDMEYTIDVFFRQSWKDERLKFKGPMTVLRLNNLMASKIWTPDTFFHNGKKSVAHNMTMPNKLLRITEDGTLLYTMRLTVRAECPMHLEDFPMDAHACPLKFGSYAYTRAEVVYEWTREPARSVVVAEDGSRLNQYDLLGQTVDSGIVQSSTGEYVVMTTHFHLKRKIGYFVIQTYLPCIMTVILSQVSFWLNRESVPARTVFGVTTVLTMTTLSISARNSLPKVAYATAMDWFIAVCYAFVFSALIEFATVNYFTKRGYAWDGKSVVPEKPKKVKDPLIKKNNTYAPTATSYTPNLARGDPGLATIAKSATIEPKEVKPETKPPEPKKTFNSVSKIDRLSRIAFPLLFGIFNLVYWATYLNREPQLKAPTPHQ
Slc6a3: Sodium-dependent dopamine transporter (Slc6a3, Rattus norvegicus, UniProt P23977)
Sequence of UniProt Q01959 (whole entry, looked up): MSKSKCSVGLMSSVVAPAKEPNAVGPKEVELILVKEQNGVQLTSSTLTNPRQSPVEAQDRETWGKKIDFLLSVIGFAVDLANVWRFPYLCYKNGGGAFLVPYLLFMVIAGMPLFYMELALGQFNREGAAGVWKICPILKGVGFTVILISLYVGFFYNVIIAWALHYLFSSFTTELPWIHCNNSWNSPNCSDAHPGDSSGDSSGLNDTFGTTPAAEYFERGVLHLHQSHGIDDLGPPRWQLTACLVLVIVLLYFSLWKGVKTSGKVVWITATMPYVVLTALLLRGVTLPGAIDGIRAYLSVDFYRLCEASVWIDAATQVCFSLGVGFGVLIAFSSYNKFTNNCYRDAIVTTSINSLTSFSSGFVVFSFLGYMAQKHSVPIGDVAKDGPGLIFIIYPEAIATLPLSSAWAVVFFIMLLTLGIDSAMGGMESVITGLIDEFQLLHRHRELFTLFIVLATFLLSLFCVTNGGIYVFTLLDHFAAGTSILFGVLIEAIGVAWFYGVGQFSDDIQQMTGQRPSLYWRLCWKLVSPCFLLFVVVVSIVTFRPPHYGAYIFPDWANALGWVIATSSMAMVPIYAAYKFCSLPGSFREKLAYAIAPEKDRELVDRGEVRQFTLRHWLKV
Sequence of UniProt P23977 (whole entry, looked up): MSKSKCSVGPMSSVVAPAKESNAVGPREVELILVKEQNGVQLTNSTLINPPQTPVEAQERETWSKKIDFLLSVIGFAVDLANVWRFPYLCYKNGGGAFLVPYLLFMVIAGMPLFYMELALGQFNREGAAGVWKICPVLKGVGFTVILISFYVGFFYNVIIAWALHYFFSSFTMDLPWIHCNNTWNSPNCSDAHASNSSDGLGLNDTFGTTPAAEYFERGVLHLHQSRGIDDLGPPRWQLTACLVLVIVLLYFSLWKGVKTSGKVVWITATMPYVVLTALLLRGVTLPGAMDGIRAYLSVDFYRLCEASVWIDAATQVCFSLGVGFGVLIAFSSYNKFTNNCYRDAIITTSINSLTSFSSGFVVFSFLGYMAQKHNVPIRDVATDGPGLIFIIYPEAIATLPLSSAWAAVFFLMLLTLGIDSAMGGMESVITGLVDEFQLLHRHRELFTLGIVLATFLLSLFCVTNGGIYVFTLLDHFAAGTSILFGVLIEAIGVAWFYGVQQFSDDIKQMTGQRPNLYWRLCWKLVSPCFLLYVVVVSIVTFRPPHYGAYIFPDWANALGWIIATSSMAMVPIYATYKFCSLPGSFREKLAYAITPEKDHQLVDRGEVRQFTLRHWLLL
Sequence of UniProt Q92993 (whole entry, looked up): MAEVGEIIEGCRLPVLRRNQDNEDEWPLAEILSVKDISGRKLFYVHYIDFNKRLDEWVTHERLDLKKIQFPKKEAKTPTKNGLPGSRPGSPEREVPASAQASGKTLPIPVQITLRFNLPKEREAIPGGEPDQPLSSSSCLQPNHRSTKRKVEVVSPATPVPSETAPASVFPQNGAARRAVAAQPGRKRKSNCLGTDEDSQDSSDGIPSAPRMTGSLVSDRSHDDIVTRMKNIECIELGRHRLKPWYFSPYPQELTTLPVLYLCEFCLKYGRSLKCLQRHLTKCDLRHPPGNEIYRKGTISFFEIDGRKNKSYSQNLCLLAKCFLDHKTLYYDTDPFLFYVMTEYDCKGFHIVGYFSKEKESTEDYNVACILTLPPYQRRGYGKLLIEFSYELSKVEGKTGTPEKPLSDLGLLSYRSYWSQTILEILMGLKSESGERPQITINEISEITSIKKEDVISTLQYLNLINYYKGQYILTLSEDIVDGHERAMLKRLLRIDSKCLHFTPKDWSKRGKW
Sequence of UniProt P21554 (whole entry, unmodified, looked up): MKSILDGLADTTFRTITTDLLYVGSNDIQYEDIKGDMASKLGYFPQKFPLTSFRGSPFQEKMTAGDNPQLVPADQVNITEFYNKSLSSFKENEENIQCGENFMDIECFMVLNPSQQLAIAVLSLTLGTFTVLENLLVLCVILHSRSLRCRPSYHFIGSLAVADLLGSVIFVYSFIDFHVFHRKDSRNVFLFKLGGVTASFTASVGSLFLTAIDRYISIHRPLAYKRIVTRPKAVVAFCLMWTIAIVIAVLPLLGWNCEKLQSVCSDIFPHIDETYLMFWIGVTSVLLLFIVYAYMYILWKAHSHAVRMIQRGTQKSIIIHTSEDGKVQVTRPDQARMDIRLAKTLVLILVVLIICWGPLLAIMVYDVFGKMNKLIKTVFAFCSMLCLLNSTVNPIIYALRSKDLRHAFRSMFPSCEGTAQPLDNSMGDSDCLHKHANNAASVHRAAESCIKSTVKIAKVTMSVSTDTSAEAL
Sequence of UniProt P49116 (whole entry, looked up): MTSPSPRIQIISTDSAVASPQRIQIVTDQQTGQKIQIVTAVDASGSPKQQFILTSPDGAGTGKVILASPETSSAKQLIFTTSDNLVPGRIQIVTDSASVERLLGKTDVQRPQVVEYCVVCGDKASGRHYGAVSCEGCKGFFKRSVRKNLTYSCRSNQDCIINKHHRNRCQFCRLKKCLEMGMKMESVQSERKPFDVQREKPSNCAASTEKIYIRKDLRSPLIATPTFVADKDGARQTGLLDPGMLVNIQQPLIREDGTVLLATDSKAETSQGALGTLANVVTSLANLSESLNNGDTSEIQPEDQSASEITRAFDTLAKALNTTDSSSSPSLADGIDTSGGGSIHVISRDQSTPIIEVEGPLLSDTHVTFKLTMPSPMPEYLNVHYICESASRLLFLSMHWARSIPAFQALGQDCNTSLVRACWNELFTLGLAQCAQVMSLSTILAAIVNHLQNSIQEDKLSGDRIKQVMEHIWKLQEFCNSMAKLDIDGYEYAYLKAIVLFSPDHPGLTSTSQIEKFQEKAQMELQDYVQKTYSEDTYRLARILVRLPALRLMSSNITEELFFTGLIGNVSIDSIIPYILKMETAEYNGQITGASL
Sequence of UniProt P14060 (whole entry, looked up): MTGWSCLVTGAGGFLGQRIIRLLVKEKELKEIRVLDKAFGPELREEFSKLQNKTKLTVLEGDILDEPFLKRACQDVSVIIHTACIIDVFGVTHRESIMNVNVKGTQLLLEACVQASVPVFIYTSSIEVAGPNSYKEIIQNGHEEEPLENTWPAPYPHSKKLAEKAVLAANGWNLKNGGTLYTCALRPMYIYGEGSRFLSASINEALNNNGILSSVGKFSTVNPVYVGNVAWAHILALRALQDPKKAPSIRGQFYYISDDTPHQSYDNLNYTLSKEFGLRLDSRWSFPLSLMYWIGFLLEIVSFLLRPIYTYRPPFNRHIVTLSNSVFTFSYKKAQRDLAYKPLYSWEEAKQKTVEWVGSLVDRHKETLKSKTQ

The Emax of `CCCCCCC(C)(C)c1ccc([C@@H]2C[C@H](O)CC[C@H]2CCCO)c(O)c1` is reported as 39.8 ± 14.1% (CNR1 (Homo sapiens, UniProt P21554, F170A); cAMP inhibition, agonist, CAMYEL BRET biosensor; together with: 10 µM forskolin; relative to: wild type receptor).
`c1ccc2cc([C@]34CNC[C@H]3C4)ccc2c1` gave a dopamine uptake of 47.4% and 48.6% and 80.3% (SLC6A3 (Homo sapiens, UniProt Q01959); inhibitor, [3H]dopamine uptake; 100 nM; relative to: no inhibitor).
`COc1ccc(C(=O)N[C@H]2CC[C@@]3(O)[C@H]4Cc5ccc(O)c6c5[C@@]3(CCN4CC3CC3)[C@H]2O6)s1.Cl` has a selectivity ratio of 19.6 (OPRD1; radioligand binding; CHO membranes; relative to: Ki µ over Ki δ).
For `Cc1ccc2c(c1)C1(CC2)C(=O)NC(=O)NC1=O`, the Emax was 6% (GABA-A receptor; alpha-1/beta-3/gamma-2; 300 µM).
The selectivity ratio of `Cl.O=C(N[C@H]1CC[C@@]2(O)[C@H]3Cc4ccc(O)c5c4[C@@]2(CCN3CC2CC2)[C@H]1O5)c1ccc(F)s1` is reported as 108 (OPRD1; radioligand binding; CHO membranes; relative to: Ki µ over Ki δ).
The Km of `Nc1ncnc2c1ncn2[C@@H]1O[C@H](COP(=O)(O)OP(=O)(O)OP(=O)(O)O)[C@@H](O)[C@H]1O` is reported as 2 µM (MET (Homo sapiens, UniProt P08581, F1200I); substrate).
With `CN1CC[C@]2(C)c3cc(OC(=O)Nc4ccccc4)ccc3N(C)[C@H]12` the inhibition was 0% (human nicotinic α2β2 receptor; radioligand binding; 10 µM, together with: [3H]epibatidine).
`CC(=O)[C@H]1CC[C@H]2[C@@H]3CC[C@H]4C[C@H](O)CC[C@]4(C)[C@H]3CC[C@]12C` gave an inhibition of 0% (Genome polyprotein, NS3 helicase domain (Hepatitis C virus genotype 1b, UniProt Q9WMX2); DNA binding, inhibitor; hepatitis C virus; 100 µM, together with: Cy5-dT15 DNA).
`CNC(C)C(=O)c1ccc2c(c1)OCO2` (centres unmarked) gave a maximal release of 100% (Slc6a3; substrate release, releaser; rat brain synaptosomes).
For `C[C@]12CC[C@H](O)CC1=CC[C@@H]1[C@@H]2CC[C@]2(C)C(=O)CC[C@@H]12`, the Km was 3.7 µM (HSD3B1 (Homo sapiens, UniProt P14060); substrate).
With `Brc1ccc2c(c1)C(c1ccccn1)=NCc1c(-c3cnco3)ncn1-2` the selectivity ratio was 5.6 fold (ADRA2B (Homo sapiens, UniProt P18089); radioligand binding; rat; together with: [3H]rauwolscine; relative to: alpha2B over benzodiazepine site).
With `CN[C@]1(c2ccccc2Cl)CCCCC1=O` the inhibition was 20% (glycine transporter; radioligand binding, radioligand displacement; 30 µM).
For `CCCc1cc(O)c2c(c1)OC(C)(C)[C@@H]1CCC(C)=C[C@@H]21`, the Hill coefficient was 2.36 ± 0.2 (TRPV3 (Homo sapiens, UniProt Q8NET8, H430A); calcium uptake, agonist; HEK293S; mutant H430A, site 3).
`OC[C@H]1N[C@H](CO)[C@@H](O[C@H]2O[C@H](CO)[C@@H](O)[C@H](O)[C@H]2O)[C@@H]1O` — result for PNP inhibition: “no inhibition” (purine nucleoside phosphorylase; enzyme activity; concentration not given, pH 7.5, coupling enzyme control, together with: MESG 1 mM).
The Emax of `N#CSC1CC2(C(=O)NC(=O)NC2=O)c2ccccc21` (centres unmarked) is reported as 20% (GABA-A receptor; alpha-1/beta-3/gamma-2; 1000 µM).
`Cc1cccc(C(C)c2cnc[nH]2)c1C` (centres unmarked) has a koff of 9.62e-06 s⁻¹ (Nuclear receptor subfamily 2 group C member 2, ligand-binding domain (Homo sapiens, UniProt P49116); binding).
`CN1C(=O)NC(=O)C2(CCc3ccc(Br)cc32)C1=O` (centres unmarked) gave an Emax of 40% (GABA-A receptor; alpha-1/beta-3/gamma-2; 300 µM).
Under “log2 fold change”, `Oc1ccc2c3c1O[C@H]1[C@@H](O)CC[C@@]4(O)[C@@H](C2)N(CC2CCC2)CC[C@]314` is recorded as -0.03 (Probable G-protein coupled receptor 19 (GPR19, Homo sapiens, UniProt Q15760); β-arrestin recruitment, TANGO luminescence, item: GPR19; concentration not given; relative to: basal luminescence).
Under “SPR binding response”, `CCOc1ccccc1C(=O)Nc1ccc(Cl)c(C(F)(F)F)c1` is recorded as 1.03 RU (KAT5 (Homo sapiens, UniProt Q92993); SPR; 50 µM; higher = more binding).
`O=C(O)c1nccnc1NC(=O)c1cccc2ccccc12` — result for “enzyme inhibition enhancement”: 1000 fold (Aspartate 1-decarboxylase (panD, Mycobacterium tuberculosis, UniProt P9WIL3); concentration not given; relative to: pyrazinoic acid).
`CC(C)=CCN1CC[C@]2(C)c3cc(O)ccc3C[C@H]1[C@H]2C` has an inhibition of 98.8% (sigma-1 receptor (guinea pig); radioligand binding; concentration not given).
`CCNC(CC)C(=O)c1ccc2c(c1)OCO2` (centres unmarked): EC50 “inactive” (Slc6a3; substrate release, releaser; rat brain synaptosomes; together with: [3H]MPP+ 9 nM).
With `CN1C(=O)NC(=O)[C@@]2(CCc3ccccc32)C1=O` the Emax was 8% (GABA-A receptor; alpha-1/beta-3/gamma-2; 300 µM).
For `CCN(CC)C(=O)[C@@H]1C=C2c3cccc4[nH]cc(c34)C[C@H]2N(C)C1`, activity class read “inactive” (ACHE (Homo sapiens, UniProt P22303); biochemical; concentration not given).
The selectivity ratio of `Cl.O=C(N[C@H]1CC[C@@]2(O)[C@H]3Cc4ccc(O)c5c4[C@@]2(CCN3CC2CC2)[C@H]1O5)c1ccc(C(F)(F)F)s1` is reported as 141 (OPRD1; radioligand binding; CHO membranes; relative to: Ki µ over Ki δ).
`CC(C)c1ccc2c(c1)C1(CC2)C(=O)NC(=S)NC1=O` has an Emax of 54% (GABA-A receptor; alpha-1/beta-3/gamma-2; 300 µM).
`COc1cc(CCNC(C)c2ccccc2O)c(OC)cc1C#N.Cl` (centres unmarked) has a selectivity ratio of 2450 fold (HTR2A (Homo sapiens, UniProt P28223); Gq signalling, item: IP1; 60 min; relative to: 5-HT2A over 5-HT2C).
`Cn1cc2cc(C(F)(F)c3nnc4ccc(-c5cnn(C6CC6)c5)nn34)c(F)cc2n1` — result for “Kd fold change”: “not detected” (MET (Homo sapiens, UniProt P08581, C1091S/C1146S/K1232C/Y1230S); concentration not given; relative to: wild type).
With `NC1CC2(C(=O)NC(=O)NC2=O)c2ccccc21` (racemic) the Emax was 10% (GABA-A receptor; alpha-1/beta-3/gamma-2; 300 µM).

For quick reference, copied from above:
For `CCN(CC)C(=O)[C@@H]1C=C2c3cccc4[nH]cc(c34)C[C@H]2N(C)C1`, activity class read “inactive” (ACHE (Homo sapiens, UniProt P22303); biochemical; concentration not given).
For `C[C@]12CC[C@H](O)CC1=CC[C@@H]1[C@@H]2CC[C@]2(C)C(=O)CC[C@@H]12`, the Km was 3.7 µM (HSD3B1 (Homo sapiens, UniProt P14060); substrate).
The Emax of `CCCCCCC(C)(C)c1ccc([C@@H]2C[C@H](O)CC[C@H]2CCCO)c(O)c1` is reported as 39.8 ± 14.1% (CNR1 (Homo sapiens, UniProt P21554, F170A); cAMP inhibition, agonist, CAMYEL BRET biosensor; together with: 10 µM forskolin; relative to: wild type receptor).
`CC(C)=CCN1CC[C@]2(C)c3cc(O)ccc3C[C@H]1[C@H]2C` has an inhibition of 98.8% (sigma-1 receptor (guinea pig); radioligand binding; concentration not given).
`COc1ccc(C(=O)N[C@H]2CC[C@@]3(O)[C@H]4Cc5ccc(O)c6c5[C@@]3(CCN4CC3CC3)[C@H]2O6)s1.Cl` has a selectivity ratio of 19.6 (OPRD1; radioligand binding; CHO membranes; relative to: Ki µ over Ki δ).
